Experimental data gathered from unrelated publications.
Numbered parts are unrelated; each lists some results of a single study.

Series 1
Target: RING finger protein unkempt homolog, zinc fingers 1-6, GST-SBP tag (UNK, Homo sapiens, UniProt Q9C0B0, residues 30-357)
Method: RNA Bind-n-Seq
Form: RNA
Medium: in vitro
Concentration: not given
Notes: RNA with constant flanks, human and mouse sites, ends assumed
Baseline: input RNA pool
Reading: higher = stronger binding
Construct (chain): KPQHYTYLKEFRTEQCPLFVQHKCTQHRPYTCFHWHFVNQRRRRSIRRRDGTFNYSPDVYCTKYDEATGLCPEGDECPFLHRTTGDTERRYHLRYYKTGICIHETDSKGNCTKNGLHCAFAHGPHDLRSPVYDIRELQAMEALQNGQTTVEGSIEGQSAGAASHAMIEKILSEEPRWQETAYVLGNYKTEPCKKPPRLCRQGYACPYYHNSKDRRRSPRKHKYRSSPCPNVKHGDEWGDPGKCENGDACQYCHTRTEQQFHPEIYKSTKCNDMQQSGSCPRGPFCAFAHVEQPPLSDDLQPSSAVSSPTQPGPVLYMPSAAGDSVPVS
`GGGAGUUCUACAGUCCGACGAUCCAUGUUUAUAAUGUGCACAGAAAAAGCUUGAGAAUGAUAAUUUUGGUUUAAAUGUGCUGGUUAGUUGAUGUUAUGACUACUUUAAAUUUUAAGGAUUGUGACACACUCCUACUAUUGAAACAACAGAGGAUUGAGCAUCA` has a bound/input enrichment of 0.479 ratio.
`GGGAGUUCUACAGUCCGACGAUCUUCAAAAUUGGAGCAUGUCGUCAUGGAGACAGGUGCUCUCGGUUGCACAAUAAACCGACGUUUAGCCAGACCAUUGCCCUCUUGAACAUUUACCGUAACCCUCAAAACUCUUCCCAGUCUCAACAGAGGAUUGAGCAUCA` has a bound/input enrichment of 0.237 ratio.
For `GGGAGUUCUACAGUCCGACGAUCGUCAUCGAUGCAGGAGUCUGCAGGAGGCUUGUGGAACUUCUGAUGCAUAAUGACUAUAAAGUAGUUUCUCCUGCUUUGCGGGCUGUGGGAAACAUUGUCACAGGGGAUGAUAUUCAGACACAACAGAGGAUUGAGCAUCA`, the bound/input enrichment was 0.222 ratio.
For `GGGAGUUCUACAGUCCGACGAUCUAUAGUGGGGUUGGUAAUUCAUCAGUUUCUGGCCAUGGUAUUCUCCCAAGCUAUCAGGAACUAGUGGAAGACCGUUUCAGGAAACCUCAUGCUUUUGCUGUGCCUGGACAGUCUUAUCAGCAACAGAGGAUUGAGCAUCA`, the bound/input enrichment was 0.428 ratio.
The bound/input enrichment of `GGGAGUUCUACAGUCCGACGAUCUGGCCACAGGCAGGGCGGGUCUGUGUCCCAUGUGUCCUGUCAGUCCCCUGAGUAUGUGUGUGGGUGUGGCGCAUGUGCAGGUCUGUGCCUCCUGUCGGGAUUUGGGUUUUAACGUCUUCUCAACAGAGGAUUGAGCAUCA` is reported as 0.23 ratio.
`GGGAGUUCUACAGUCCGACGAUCAGGCGACAAAAGGCUAGAGAAAGGCAGCAGAAAUUGCUCGCAGAGUUUGCCUCACGACAGAAAAGCUUUAUGGAAACUGCAAUGGAUGUUGAUUCUCCUGAGAACGAUAUUCCUAUGGAACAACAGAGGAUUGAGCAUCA` gave a bound/input enrichment of 0.0841 ratio.
With `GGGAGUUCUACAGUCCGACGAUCCUCAGGUGUAAAAGCCACACGAAGAAAUGAGCUGUAAGCGGUGGCAUCACUUUGGAUACUUAGUUUAAAAGUAUAUGUGUGAUUUUCUAUGUUCCAAAACUAUCAUGAGUUUUUUGGCCCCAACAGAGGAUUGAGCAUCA` the bound/input enrichment was 4.04 ratio.
With `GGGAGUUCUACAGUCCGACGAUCUUGAACCAGGCUGCUGGAGCUUGCUCCCUCCCGCCCUCUCUCUUUUUUUUCCACGGGGCUGUUUUUUUAAUUUGGCUGCAAUUGCAUGAAAUCCCAAUGGUGUAGACCAGUGGCGAUGGACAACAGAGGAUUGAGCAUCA` the bound/input enrichment was 0.398 ratio.

Series 2
Target: Histone acetyltransferase KAT6A, winged helix 1, GST fusion (KAT6A, Homo sapiens, UniProt Q92794, residues 1-85)
Method: protein binding microarray
Form: double-stranded DNA, one strand shown
Medium: in vitro
Concentration: not given
Notes: 8-mer, flanks averaged, mean of 2 arrays, mostly near background
Baseline: not given
Reading: higher = stronger binding
Residues (chain): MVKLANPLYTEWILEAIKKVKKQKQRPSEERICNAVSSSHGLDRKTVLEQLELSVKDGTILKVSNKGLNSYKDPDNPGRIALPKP
`CATACGAG` gave an E-score of -0.116.
For `TATACAAA`, the E-score was -0.0703.
The E-score of `AAACATTA` is reported as 0.0705.
`CCTCGTTA` has an E-score of -0.287.
`CGTGTTAA` gave an E-score of -0.0128.
The E-score of `ACTAGGCG` is reported as 0.229.
`AAAACGGC` has an E-score of 0.278.
With `CGCGTTCA` the E-score was 0.317.
For `AATTGTCT`, the E-score was -0.171.
The E-score of `CGCCCATC` is reported as 0.069.
For `ACATGCCG`, the E-score was 0.318.
`AAAGGAAC` has an E-score of -0.186.
`AATGTCCG` has an E-score of 0.246.
For `AGTAATGA`, the E-score was -0.184.
The E-score of `ATGCATCG` is reported as 0.0558.
With `CACTAATC` the E-score was -0.0253.
With `ATTTCTTG` the E-score was -0.137.

Series 3
Target: RNA binding protein fox-1 homolog 2, RRM domain, GST-SBP tag (RBFOX2, Homo sapiens, UniProt O43251-10, residues 100-194)
Method: RNA Bind-n-Seq
Form: RNA
Medium: in vitro
Concentration: 365 nM
Notes: natural RNA segment, single round, ends assumed
Baseline: no-protein control
Reading: higher = stronger binding
Construct (chain): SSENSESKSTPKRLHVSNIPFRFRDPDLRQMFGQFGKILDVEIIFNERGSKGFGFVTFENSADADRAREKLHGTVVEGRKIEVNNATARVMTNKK
For `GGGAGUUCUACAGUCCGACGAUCCCUUUUUGGUCAUUGUUAUAAUGCCAGCUUUAGGACAGAAAGAAUUAUAAGAAAACCAGCAUAAUACCUGAUAUAUUAAAAUGUAGUGCCUGUGAAACCUGUAUUAUACUUGGAAUUCUCGGGUGCCAA`, “RBNS enrichment (R)” read 2.33.
For `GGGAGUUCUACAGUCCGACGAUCAUUGCUGGAAUACUGGUGUCUGUUAGAAUGCUUCAGACUACAGAUGUAAUUAAAGGCUUUUCUUAAUAUGUUUUAACCAAAGAUGUGGAGCAAUCCAAGCCACAUAUCUUUGGAAUUCUCGGGUGCCAA`, “RBNS enrichment (R)” read 1.87.
Under “RBNS enrichment (R)”, `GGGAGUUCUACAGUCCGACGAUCGGGUCUUCCUGCCUCACCACCUUGCUGUGCAUGAUGAUGCUGACCCACCCCCUUUACCUCCCUUCCCAGAACUGAUACACGGGUGUUAUUAUUCAGGAAAAAAACUGAGCUGGAAUUCUCGGGUGCCAA` is recorded as 1.31.
For `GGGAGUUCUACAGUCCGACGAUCAGCACCAUUAGCACCACAGAAUUCACCCACUGCCUGUUUUUCCUUUUCCUUUCUCAAACCUACUCAAAUAAAAGGAUGAGGGUUAAGGGCAGGAAGUGGGAGGAUCUAAAUGGAAUUCUCGGGUGCCAA`, “RBNS enrichment (R)” read 0.689.
For `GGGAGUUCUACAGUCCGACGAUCGCUGUGACAGUGACAGCUCAUUUCUCAGGCCUGGUUUGCUUUGAUGUAUUACUCUUCUUCUUUUAAUUUAUGUUAGAACGAGAAAAGCUUAAUACAACAGGUGCCCAGAAUGGAAUUCUCGGGUGCCAA`, “RBNS enrichment (R)” read 0.22.
`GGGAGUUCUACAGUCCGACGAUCGACUUUGCUAAGUUCAUCUCAGGGUUAUCUGAGCCUUGACCAAGUUUAUCCUAAGGGAAUACCACUUUGCUCCCUGUGCAUAGUUUAGGAACUGUAGUCCUAGGAGGAAAUGGAAUUCUCGGGUGCCAA`: “RBNS enrichment (R)” 0.329.
For `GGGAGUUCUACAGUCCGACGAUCACCUGGGGGUACCCGCAUCCACUUCCUUUCCCCCUUUUAACAAAAGAGAAGAACGAAUUCCAAACCAUGCCAGGCUCUGUGGUCUUACCUUGUAUACGAGGCUUGCUGCCUGGAAUUCUCGGGUGCCAA`, “RBNS enrichment (R)” read 1.73.
`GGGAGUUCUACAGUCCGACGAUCCUUUAAAUGUUUAUGAGCUAGUUUAUGCCUCGGAAGACAUAAGGUUUCCCAUUCCAAUUUGAAUCUUUCUAUUUCUUUAGCAUCAUAUUGCUCUUCUUCUUUUAGACUGGUGGAAUUCUCGGGUGCCAA`: “RBNS enrichment (R)” 0.686.

Series 4
Target: Sal-like protein 4, full length isoform A (SALL4, Homo sapiens, UniProt Q9UJQ4, residues 1-1053)
UniProt Q9UJQ4, sequence (whole entry, looked up): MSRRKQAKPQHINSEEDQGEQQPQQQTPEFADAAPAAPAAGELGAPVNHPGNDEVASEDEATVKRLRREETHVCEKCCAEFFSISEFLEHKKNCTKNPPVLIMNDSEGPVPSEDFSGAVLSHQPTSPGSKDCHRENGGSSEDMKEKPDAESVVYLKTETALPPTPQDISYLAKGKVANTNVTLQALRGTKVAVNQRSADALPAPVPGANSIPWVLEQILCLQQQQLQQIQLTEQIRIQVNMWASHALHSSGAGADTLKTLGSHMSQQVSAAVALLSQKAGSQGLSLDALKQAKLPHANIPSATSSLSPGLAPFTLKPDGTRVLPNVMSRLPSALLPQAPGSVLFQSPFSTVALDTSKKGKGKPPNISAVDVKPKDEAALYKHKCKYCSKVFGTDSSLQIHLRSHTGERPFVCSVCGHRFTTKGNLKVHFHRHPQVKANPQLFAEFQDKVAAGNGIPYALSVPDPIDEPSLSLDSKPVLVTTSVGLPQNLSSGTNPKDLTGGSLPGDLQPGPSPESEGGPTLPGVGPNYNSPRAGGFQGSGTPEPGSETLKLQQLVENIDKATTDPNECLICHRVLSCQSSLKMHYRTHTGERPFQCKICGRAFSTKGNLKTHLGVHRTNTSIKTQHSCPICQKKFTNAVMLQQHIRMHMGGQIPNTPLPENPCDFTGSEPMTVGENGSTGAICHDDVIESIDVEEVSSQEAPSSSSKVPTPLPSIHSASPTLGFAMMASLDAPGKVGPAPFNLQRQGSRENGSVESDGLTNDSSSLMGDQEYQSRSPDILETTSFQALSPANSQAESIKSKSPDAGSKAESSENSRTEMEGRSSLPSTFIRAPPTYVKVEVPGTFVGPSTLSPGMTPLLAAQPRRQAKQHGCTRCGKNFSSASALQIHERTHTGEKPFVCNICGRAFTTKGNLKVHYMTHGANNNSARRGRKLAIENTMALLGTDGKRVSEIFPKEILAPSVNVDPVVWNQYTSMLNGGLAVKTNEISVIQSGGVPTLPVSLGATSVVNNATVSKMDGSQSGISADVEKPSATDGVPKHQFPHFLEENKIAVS
Method: universal PBM
Form: double-stranded DNA, one strand shown
Medium: in vitro
Concentration: 600 nM
Notes: 8-mer, flanks averaged, mean of replicates
Reading: higher = stronger binding
For `GACCTTTA`, the E-score was 0.074.
For `CAATTGGA`, the E-score was -0.0535.
`CCGCTTCA` has an E-score of -0.205.
The E-score of `CACATACC` is reported as 0.0903.
`CCAGTCAA` gave an E-score of -0.0976.
`ATCCCGGG` has an E-score of -0.298.
`AGATACAA` has an E-score of 0.316.
The E-score of `ATCGTTGC` is reported as -0.0174.
For `AGGACCAG`, the E-score was -0.26.
With `CCCAACGA` the E-score was -0.0611.
`CACAACGA` has an E-score of 0.116.
For `CATGGCAA`, the E-score was 0.0394.
The E-score of `ACGCAATA` is reported as 0.241.
`CTTACGGA` has an E-score of -0.101.
`AGTTCCGC` gave an E-score of -0.171.
With `GCTAGAGA` the E-score was 0.0132.
`AGCACACT` has an E-score of 0.0597.
With `AAGTGCAC` the E-score was -0.00719.

Repeated from above (series 4):
For `CAATTGGA`, the E-score was -0.0535.
`CCGCTTCA` has an E-score of -0.205.
The E-score of `CACATACC` is reported as 0.0903.
`CCAGTCAA` gave an E-score of -0.0976.
`ATCCCGGG` has an E-score of -0.298.
`AGATACAA` has an E-score of 0.316.
The E-score of `ATCGTTGC` is reported as -0.0174.
